# Experimental data collected from several papers.
# Protocols differ between the studies behind these lines. Several values in a cell are separate wells, animals, samples, runs or records.
# Target: 5-hydroxytryptamine receptor 2A (HTR2A, Homo sapiens, UniProt P28223)
SMILES,assay,test system,setting,how to read,quantity,value
C/C(=N\OCCCN1CCCCC1)c1ccc(C(F)(F)F)cc1,"agonist, IP-One",,10 µM,,activation,3.06%
CCN(CC)CCOc1ccc(-c2nnn(Cc3ccc(OC)cc3)c2N)cc1,radioligand binding,HEK293,"10 µM, safety profiling",,inhibition,13.1%
COc1ncc2nc(C)n(Cc3ncc(S(N)(=O)=O)cc3F)c2c1-c1ccccc1,,cells,10 µM,,inhibition,-22.3%
COc1ccccc1N1CCN(CCCCN2CCCc3ccccc3C2=O)CC1,radioligand binding,,"concentration not given, with: [3H]ketanserin",,inhibition,93.5%
C[C@H](NCc1ccc(-c2ccc(C(F)(F)F)cc2)cc1)C(N)=O,"radioligand binding, SafetyScreen panel",,"1 µM, species human, with: 0.50 nM [3H]Ketanserin",,inhibition,-3%
CCc1nnc(-c2c(OC)cc(-c3cnc4cc(-c5cnn(C)c5)ccn34)cc2OC)o1,"agonist radioligand, radioligand binding",,"10 µM, SafetyScreen44 5-HT2A mean",lower = stronger displacement,remaining binding,113%
C[C@H](CCC(=O)O)[C@H]1CC[C@H]2[C@@H]3[C@H](OS(=O)(=O)O)C[C@@H]4C[C@H](O)CC[C@]4(C)[C@H]3C[C@H](O)[C@]12C,"beta-arrestin recruitment, antagonist, PathHunter enzyme fragment complementation",PathHunter GPCR cell line,"100 µM, with: EC80 agonist",,inhibition,-20%
CO[C@@H](C)c1c(NC(=O)Nc2cnc(-n3nccn3)c(C(F)(F)F)c2)cnc2sc(C)nc12,"ligand displacement, radioligand",,10 µM,,inhibition,-6.2%
Cc1cc(Nc2nc(C[C@@]3(C(=O)O)CCN(Cc4cccc(Cl)c4F)[C@H](C)C3)cc(C)c2F)[nH]n1,agonist,,10 µM,,activation,0.3%
Cc1cc(-c2ccc3ccccc3c2)nnc1NCCN1CCN(C)CC1,antagonist,,10000 nM,baseline: control,activity,2%
CCOC(=O)[C@](CC)(CCCSCCOCCOCCNC(=O)c1ccc(-c2c3ccc(=N)c(S(=O)(=O)O)c-3oc3c(S(=O)(=O)O)c(N)ccc23)c(C(=O)O)c1)NC(=O)c1ccc(C2CC2)c(Cc2ccc(F)cc2)n1,"ligand displacement, radioligand",,10 µM,,inhibition,5%
CS(C)(=O)=Nc1ccc(-c2ccc(-c3nc4cc(O[C@@H]5CO[C@H]6[C@@H]5OC[C@H]6O)[nH]c4cc3F)cc2)cc1,"calcium signal, antagonist",,10 µM,,inhibition,-1%
COc1ccc(F)cc1S(=O)(=O)Nc1cnc2c(c1)C(=O)NCCO2,"ligand displacement, radioligand",,10 µM,,inhibition,-1%
O=C1c2ccccc2CCCN1CCCCN1CCN(c2cccc(Cl)c2Cl)CC1,radioligand binding,,"concentration not given, with: [3H]ketanserin",,inhibition,101%
O=C(O)c1ccc(-c2nc(-c3ccccc3Cl)c3sccn23)cc1,"radioligand binding, safety screen panel",,10 µM,baseline: control,specific binding,121% and 130%
COc1c(O)c(Cl)c2c3c1-c1cc4c(cc1CC3N(C)CC2)OCO4 (racemic),"calcium flux, antagonist, FLIPR",HEK293,with: serotonin,,apparent Kb,130 nM
Cc1sc2c(c1C)C(c1ccc(Cl)cc1)=NC(CC(=O)OC(C)(C)C)c1nnc(C)n1-2 (stereo not drawn),"ligand displacement, radioligand",,1 µM,,remaining binding,76.3%
N[C@H](C(=O)N1CCCC1)C1CCN(c2nccc3c(-c4ncc(Cl)cc4Cl)cccc23)CC1,"functional response, agonist",,10 µM,,response,0%

# A few entries again:
SMILES,assay,test system,setting,how to read,quantity,value
C[C@H](NCc1ccc(-c2ccc(C(F)(F)F)cc2)cc1)C(N)=O,"radioligand binding, SafetyScreen panel",,"1 µM, species human, with: 0.50 nM [3H]Ketanserin",,inhibition,-3%
CCc1nnc(-c2c(OC)cc(-c3cnc4cc(-c5cnn(C)c5)ccn34)cc2OC)o1,"agonist radioligand, radioligand binding",,"10 µM, SafetyScreen44 5-HT2A mean",lower = stronger displacement,remaining binding,113%
